Earlier results, collected from citations in different studies.
Compare with care: the assays were run in different laboratories. Numbers after ± are the reported error. Converted amounts (≈) assume the structure as drawn.
lasR: Transcriptional activator protein LasR (lasR, Pseudomonas aeruginosa, UniProt P25084)
Sequence of UniProt P25084 (whole entry, looked up): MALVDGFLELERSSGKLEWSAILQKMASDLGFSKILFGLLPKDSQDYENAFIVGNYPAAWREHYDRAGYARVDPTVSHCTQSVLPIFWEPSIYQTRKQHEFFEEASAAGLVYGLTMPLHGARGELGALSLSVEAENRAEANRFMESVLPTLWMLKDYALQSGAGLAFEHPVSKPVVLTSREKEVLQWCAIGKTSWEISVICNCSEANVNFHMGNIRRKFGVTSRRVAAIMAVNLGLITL
Sequence of UniProt P28335 (whole entry, looked up): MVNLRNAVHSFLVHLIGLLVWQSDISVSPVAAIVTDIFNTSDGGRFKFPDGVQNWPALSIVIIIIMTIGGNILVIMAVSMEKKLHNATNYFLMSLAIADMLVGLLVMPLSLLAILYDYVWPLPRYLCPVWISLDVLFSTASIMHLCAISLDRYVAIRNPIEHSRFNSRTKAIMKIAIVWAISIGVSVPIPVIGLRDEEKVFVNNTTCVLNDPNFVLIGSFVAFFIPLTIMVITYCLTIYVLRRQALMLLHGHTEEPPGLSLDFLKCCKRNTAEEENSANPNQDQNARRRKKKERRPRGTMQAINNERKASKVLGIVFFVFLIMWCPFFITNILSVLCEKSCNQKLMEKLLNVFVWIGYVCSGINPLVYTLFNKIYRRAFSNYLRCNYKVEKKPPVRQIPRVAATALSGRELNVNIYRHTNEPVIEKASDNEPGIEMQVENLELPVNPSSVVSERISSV
Sequence of UniProt P30542 (whole entry, looked up): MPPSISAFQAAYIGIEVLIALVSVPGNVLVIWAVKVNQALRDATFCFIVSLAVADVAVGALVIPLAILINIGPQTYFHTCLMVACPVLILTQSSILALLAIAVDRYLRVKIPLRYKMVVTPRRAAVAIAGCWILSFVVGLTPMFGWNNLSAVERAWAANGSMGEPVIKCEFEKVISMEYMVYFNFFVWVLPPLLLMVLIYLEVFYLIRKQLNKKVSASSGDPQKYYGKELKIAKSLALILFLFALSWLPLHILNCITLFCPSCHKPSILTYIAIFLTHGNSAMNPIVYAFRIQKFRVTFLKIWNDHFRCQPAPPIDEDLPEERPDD

Cc1c(CC(=O)N[C@@H](Cc2ccccc2)C(=O)N(C)c2ccc(Cl)cc2)c2ccccc2n1C(C)C
ΔTm (HIV-1 capsid hexamer wild type): 8.5 °C

CC(=O)N1CCN(CC(=O)Nc2cncc3ccccc23)CC1
inhibition (main protease (Mpro); 50 µM): 42.4%

CC(=O)OC12COC1CC(O)C1(C)C(=O)C(OC(=O)N(C)C)C3=C(C)C(OC(=O)C(O)C(C=C(C)C)NC(=O)OC(C)(C)C)CC(O)(C(OC(=O)c4cccc(OC(F)(F)F)c4)C21)C3(C)C (centres unmarked)
IC50 (MCF7/PTX, paclitaxel-resistant; cell viability): 31.4 ± 2.84 nM

CC[C@H](C)[C@H](NC(=O)[C@H](CCCCN)NC(=O)[C@H](CCCNC(=N)N)NC(=O)[C@H](CCCCN)NC(=O)[C@H](CC(C)C)NC(=O)[C@H](Cc1ccccc1)NC(=O)[C@H](CCC(=O)O)NC(=O)[C@H](CCCCN)NC(=O)[C@@H](NC(=O)[C@@H](NC(=O)[C@H](CCC(=O)O)NC(=O)[C@H](C)NC(=O)CNC(=O)[C@@H](N)CCCNC(=N)N)[C@@H](C)O)C(C)C)C(=O)N[C@@H](CCCNC(=N)N)C(=O)N[C@@H](CCC(=O)O)C(=O)N[C@@H](CCCNC(=N)N)C(=O)NCC(=O)N[C@H](C(=O)N[C@@H](CCCCN)C(=O)N[C@@H](C)C(=O)N[C@H](C(=O)N[C@H](C(=O)N[C@@H](C)C(=O)N[C@@H](Cc1c[nH]c2ccccc12)C(=O)O)[C@@H](C)CC)C(C)C)[C@@H](C)O
MIC (Staphylococcus aureus): 64 µM (≈ 188 µg/mL)

COc1ccc2c3c1O[C@H]1[C@H](O)CC[C@@]4(O)[C@@H](C2)N(C)CC[C@]314
ED50 (analgesia, Haffner tail-clip test; mouse; subcutaneous): 8 mg/kg

CC(C)[C@H](Nc1nc(Cl)nc2c1ncn2[C@H]1[C@H](O)[C@H](O)[C@]2(CO)C[C@H]12)C1CC1
Ki (Adenosine receptor A1 (ADORA1, Homo sapiens, UniProt P30542); binding; with: [3H]R-PIA): 104 ± 6 nM

CC(C)[C@H](NC(=O)[C@H](Cc1ccc(O)cc1)NC(=O)[C@H](CS)NC(=O)[C@@H](NC(=O)[C@H](CCCNC(=N)N)NC(=O)[C@H](Cc1ccccc1)NC(=O)[C@H](CS)NC(=O)[C@H](Cc1c[nH]c2ccccc12)NC(=O)[C@@H](N)CCCNC(=N)N)C(C)C)C(=O)NCC(=O)N[C@@H](Cc1ccccc1)C(=O)N[C@@H](CS)C(=O)N[C@@H](Cc1ccc(O)cc1)C(=O)N[C@@H](Cc1c[nH]c2ccccc12)C(=O)N[C@@H](CCCCN)C(=O)N[C@@H](CS)C(=O)N[C@@H](CCCNC(=N)N)C(=O)O
MIC (Pseudomonas aeruginosa): 8 µM (≈ 18.2 µg/mL)

O=C(Nc1cccnc1)N(CCN1CCOCC1)c1cccc(Cl)c1
inhibition (main protease (Mpro); 20 µM): 24.4%

CC[C@H](C)[C@H](NC(=O)[C@H](CCCN)NC(=O)[C@H](CCCNC(=N)N)NC(=O)[C@@H]1CCCN1C(=O)[C@@H]1CCCN1C(=O)[C@H](CCCNC(=N)N)NC(=O)[C@@H]1CCCN1C(=O)[C@H](CCCNC(=N)N)NC(=O)[C@@H]1CCCN1C(=O)[C@H](CC(C)C)NC(=O)[C@H](Cc1ccc(O)cc1)NC(=O)[C@@H]1CCCN1C(=O)[C@@H]1CCCN1C(=O)[C@H](CCCCN)NC(=O)[C@H](CC(=O)O)NC(=O)[C@@H](N)C(C)C)C(=O)N[C@@H](Cc1ccc(O)cc1)C(=O)N[C@@H](CC(N)=O)C(=O)N[C@@H](CCCN)C(N)=O
plasma concentration (sandwich ELISA; plasma; ip, 5 mg/kg, 10 min): 5170 ng/mL

CC(C)[C@H](NC(=O)[C@H](CCCNC(=N)N)NC(=O)[C@H](Cc1ccccc1)NC(=O)[C@H](CS)NC(=O)[C@H](Cc1c[nH]c2ccccc12)NC(=O)[C@@H](N)CCCCN)C(=O)N[C@@H](CS)C(=O)N[C@@H](Cc1c[nH]c2ccccc12)C(=O)N[C@@H](CCCNC(=N)N)C(=O)N[C@@H](Cc1c[nH]c2ccccc12)C(=O)N[C@@H](Cc1ccccc1)C(=O)N[C@@H](CS)C(=O)N[C@@H](Cc1c[nH]c2ccccc12)C(=O)N[C@@H](CCCNC(=N)N)C(=O)N[C@@H](CCCCN)C(=O)N[C@@H](CS)C(=O)N[C@@H](CCCNC(=N)N)C(=O)O
MIC (Staphylococcus aureus): 32 µM (≈ 78.4 µg/mL)

NC[C@]1(CC(=O)O)CC[C@H]([18F])CC1
IC50 (α2δ-1; radioligand binding): 2400 nM

CCn1c(C)c(CC(=O)N[C@@H](Cc2ccccc2)C(=O)N(C)c2ccc(F)cc2)c2ccccc21
ΔTm (HIV-1 capsid hexamer wild type): 10.7 °C

COc1cc2c(cc1-n1ccnc1)C[C@H]1[C@H]3CCCC[C@@]23CCN1C
intrinsic clearance (human liver microsomes): 15.2 µL/min/mg protein

CCN(CC)C(=O)[C@@H]1C=C2c3cccc4[nH]cc(c34)C[C@H]2N(C)C1
ED50 (head-twitch response; male C57BL/6J mouse): 133 nmol/kg

CC[C@H](C)[C@H](NC(=O)[C@H](CCCCN)NC(=O)[C@H](CCC(=O)O)NC(=O)[C@@H](NC(=O)[C@H](CCCNC(=N)N)NC(=O)[C@@H](NC(=O)CNC(=O)[C@H](CC(C)C)NC(=O)[C@H](CCCCN)NC(=O)[C@H](CCCNC(=N)N)NC(=O)[C@H](CCC(=O)O)NC(=O)[C@H](CC(C)C)NC(=O)CNC(=O)[C@@H](N)CCCNC(=N)N)C(C)C)[C@@H](C)CC)C(=O)NCC(=O)N[C@@H](CCCNC(=N)N)C(=O)N[C@@H](CCCNC(=N)N)C(=O)N[C@@H](CC(C)C)C(=O)NCC(=O)N[C@@H](CCCNC(=N)N)C(=O)N[C@H](C(=O)N[C@@H](CC(C)C)C(=O)NCC(=O)N[C@@H](CCC(=O)O)C(=O)N[C@@H](Cc1c[nH]c2ccccc12)C(=O)N[C@@H](CCC(=O)O)C(=O)N[C@H](C(=O)N[C@@H](CCC(=O)O)C(=O)O)C(C)C)[C@@H](C)CC
MIC (Pseudomonas aeruginosa): 4 µM (≈ 13.3 µg/mL)

N#Cc1ccnc(N2C(=O)CC[C@H]2C(=O)N(c2cncc(F)c2)[C@H](C(=O)NC2CC(F)(F)C2)c2ccccc2Cl)c1
median progression-free survival (pretreated mIDH1 cholangiocarcinoma patients; dose not given, trial): 3.8 months

CC(C)[C@H](NC(=O)CNC(=O)CNC(=O)[C@H](Cc1ccc(O)cc1)NC(=O)[C@H](CS)NC(=O)[C@@H](NC(=O)[C@H](Cc1c[nH]c2ccccc12)NC(=O)[C@H](Cc1ccccc1)NC(=O)[C@H](CS)NC(=O)[C@H](Cc1c[nH]c2ccccc12)NC(=O)[C@@H](N)CCCNC(=N)N)C(C)C)C(=O)N[C@@H](CS)C(=O)N[C@@H](Cc1ccc(O)cc1)C(=O)N[C@@H](CCCNC(=N)N)C(=O)N[C@@H](CCCNC(=N)N)C(=O)N[C@@H](CS)C(=O)N[C@@H](CCCNC(=N)N)C(=O)O
MIC (Escherichia coli): > 128 µM

OC[C@@]12C[C@@H]1[C@@H](n1cnc3c(N[C@H](C4CCC4)C4CC4)nc(Cl)nc31)[C@H](O)[C@@H]2O
Ki (5-hydroxytryptamine receptor 2C (HTR2C, Homo sapiens, UniProt P28335); binding; with: [3H]mesulergine): 298 nM

CCCCCCCCCC(=O)CC(=O)NC1CCCCC1=O (centres unmarked)
inhibition (lasR; lasI-gfp(LVA) reporter, inhibitor; PAO-JP2; 100 µM): 40%

CS(=O)(=O)c1ccc(N2CCNCC2)cc1
inhibition (main protease (Mpro); 20 µM): -2.52%

CCCCCCC#Cc1cncc(-c2nnc(SCc3ccc([N+](=O)[O-])cc3)n2C)c1
IC50 (Mycobacterium tuberculosis; MABA; Erdman wild type): 5900 nM

O=C(CCCc1ccccc1)NC1CCOC1=O (centres unmarked)
inhibition (lasR; lasI-lacZ reporter, inhibitor; 5 µM): 20%

CCN(CC)CC#CCNc1ccnc2cc(Cl)ccc12
resistance index (Plasmodium falciparum; parasite growth, SYBR Green I; K1; baseline: IC50 K1 over IC50 3D7): 1.1

Repeated from above:
CC(C)[C@H](NC(=O)[C@H](Cc1ccc(O)cc1)NC(=O)[C@H](CS)NC(=O)[C@@H](NC(=O)[C@H](CCCNC(=N)N)NC(=O)[C@H](Cc1ccccc1)NC(=O)[C@H](CS)NC(=O)[C@H](Cc1c[nH]c2ccccc12)NC(=O)[C@@H](N)CCCNC(=N)N)C(C)C)C(=O)NCC(=O)N[C@@H](Cc1ccccc1)C(=O)N[C@@H](CS)C(=O)N[C@@H](Cc1ccc(O)cc1)C(=O)N[C@@H](Cc1c[nH]c2ccccc12)C(=O)N[C@@H](CCCCN)C(=O)N[C@@H](CS)C(=O)N[C@@H](CCCNC(=N)N)C(=O)O
MIC (Pseudomonas aeruginosa): 8 µM (≈ 18.2 µg/mL)

O=C(Nc1cccnc1)N(CCN1CCOCC1)c1cccc(Cl)c1
inhibition (main protease (Mpro); 20 µM): 24.4%
